# Measured values from different studies.
# Compare with care: the assays were run in different laboratories. Several values in a cell are separate wells, animals, samples, runs or records. ± gives the spread as reported.
# Sequence of UniProt P16675 (whole entry, looked up): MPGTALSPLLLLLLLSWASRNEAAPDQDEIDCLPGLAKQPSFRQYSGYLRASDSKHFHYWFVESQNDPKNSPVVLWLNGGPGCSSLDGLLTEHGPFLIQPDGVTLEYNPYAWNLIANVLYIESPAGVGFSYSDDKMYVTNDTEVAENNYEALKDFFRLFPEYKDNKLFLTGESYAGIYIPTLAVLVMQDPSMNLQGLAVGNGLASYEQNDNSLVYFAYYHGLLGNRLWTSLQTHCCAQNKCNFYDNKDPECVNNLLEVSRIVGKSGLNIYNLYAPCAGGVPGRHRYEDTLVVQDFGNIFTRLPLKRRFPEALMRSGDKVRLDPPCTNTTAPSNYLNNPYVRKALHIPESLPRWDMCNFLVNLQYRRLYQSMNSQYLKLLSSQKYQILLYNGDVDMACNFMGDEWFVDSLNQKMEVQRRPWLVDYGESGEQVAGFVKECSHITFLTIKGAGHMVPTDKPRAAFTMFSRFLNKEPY
# Sequence of UniProt Q13873 (whole entry, looked up): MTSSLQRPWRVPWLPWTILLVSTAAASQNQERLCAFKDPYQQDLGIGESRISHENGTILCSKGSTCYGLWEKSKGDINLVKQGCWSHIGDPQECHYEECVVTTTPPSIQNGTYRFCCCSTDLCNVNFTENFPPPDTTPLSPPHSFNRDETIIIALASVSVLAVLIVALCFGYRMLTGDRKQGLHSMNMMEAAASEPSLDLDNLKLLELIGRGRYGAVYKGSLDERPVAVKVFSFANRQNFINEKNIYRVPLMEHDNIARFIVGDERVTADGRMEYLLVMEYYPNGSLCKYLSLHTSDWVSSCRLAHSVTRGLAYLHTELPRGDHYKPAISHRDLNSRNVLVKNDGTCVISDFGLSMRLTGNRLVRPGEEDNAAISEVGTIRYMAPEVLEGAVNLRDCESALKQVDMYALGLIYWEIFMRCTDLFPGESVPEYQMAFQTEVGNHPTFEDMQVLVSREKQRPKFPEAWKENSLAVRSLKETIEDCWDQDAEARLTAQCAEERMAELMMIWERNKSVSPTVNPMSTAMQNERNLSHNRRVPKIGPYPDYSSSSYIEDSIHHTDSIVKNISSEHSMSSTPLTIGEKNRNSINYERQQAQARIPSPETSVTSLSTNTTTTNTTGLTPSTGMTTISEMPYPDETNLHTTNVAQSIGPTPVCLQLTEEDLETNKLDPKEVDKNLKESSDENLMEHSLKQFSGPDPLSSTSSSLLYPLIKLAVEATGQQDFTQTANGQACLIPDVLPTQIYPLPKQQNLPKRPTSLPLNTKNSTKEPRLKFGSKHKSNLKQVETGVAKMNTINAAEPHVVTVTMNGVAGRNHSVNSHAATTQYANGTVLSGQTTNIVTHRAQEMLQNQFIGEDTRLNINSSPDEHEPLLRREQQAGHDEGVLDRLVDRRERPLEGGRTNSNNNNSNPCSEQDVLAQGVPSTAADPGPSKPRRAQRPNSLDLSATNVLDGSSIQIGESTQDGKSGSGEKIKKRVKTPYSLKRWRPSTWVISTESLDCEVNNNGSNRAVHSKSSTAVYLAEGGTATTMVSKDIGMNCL
# Sequence of UniProt P21554 (whole entry, unmodified, looked up): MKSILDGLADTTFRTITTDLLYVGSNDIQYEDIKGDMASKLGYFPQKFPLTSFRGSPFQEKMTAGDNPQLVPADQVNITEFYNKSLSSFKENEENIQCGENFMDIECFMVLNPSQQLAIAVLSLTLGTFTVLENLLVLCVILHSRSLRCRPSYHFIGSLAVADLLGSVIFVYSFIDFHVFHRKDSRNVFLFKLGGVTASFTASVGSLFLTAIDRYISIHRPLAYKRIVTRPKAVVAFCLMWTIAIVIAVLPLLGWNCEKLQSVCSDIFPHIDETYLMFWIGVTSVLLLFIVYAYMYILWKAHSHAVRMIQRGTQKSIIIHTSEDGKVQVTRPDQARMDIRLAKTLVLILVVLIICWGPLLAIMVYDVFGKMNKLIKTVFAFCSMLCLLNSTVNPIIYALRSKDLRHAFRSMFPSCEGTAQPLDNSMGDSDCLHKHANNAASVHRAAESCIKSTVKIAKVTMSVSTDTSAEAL
# Sequence of UniProt O96017 (whole entry, looked up): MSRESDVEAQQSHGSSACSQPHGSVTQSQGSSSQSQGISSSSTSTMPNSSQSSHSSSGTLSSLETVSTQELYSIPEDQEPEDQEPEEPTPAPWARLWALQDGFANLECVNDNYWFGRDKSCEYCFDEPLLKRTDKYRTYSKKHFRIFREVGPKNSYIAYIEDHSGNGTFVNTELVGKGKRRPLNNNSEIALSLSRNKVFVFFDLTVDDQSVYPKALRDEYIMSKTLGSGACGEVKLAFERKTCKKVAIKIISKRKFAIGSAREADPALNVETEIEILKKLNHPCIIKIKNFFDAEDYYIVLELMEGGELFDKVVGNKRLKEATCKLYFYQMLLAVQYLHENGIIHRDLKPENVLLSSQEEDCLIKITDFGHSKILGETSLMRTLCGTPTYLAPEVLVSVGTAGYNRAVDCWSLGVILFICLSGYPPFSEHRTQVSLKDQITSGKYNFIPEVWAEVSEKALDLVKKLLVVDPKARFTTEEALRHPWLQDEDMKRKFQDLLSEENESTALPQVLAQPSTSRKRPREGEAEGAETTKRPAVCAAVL
# Sequence of UniProt P06748 (whole entry, looked up): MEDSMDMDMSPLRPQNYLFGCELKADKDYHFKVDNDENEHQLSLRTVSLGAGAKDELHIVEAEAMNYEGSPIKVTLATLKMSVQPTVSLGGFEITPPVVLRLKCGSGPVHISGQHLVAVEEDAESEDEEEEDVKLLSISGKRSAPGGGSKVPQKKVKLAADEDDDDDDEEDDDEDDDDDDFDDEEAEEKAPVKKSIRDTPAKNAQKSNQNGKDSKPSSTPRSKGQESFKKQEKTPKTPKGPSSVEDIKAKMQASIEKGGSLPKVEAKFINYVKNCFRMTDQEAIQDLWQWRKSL
# Sequence of UniProt O00506 (whole entry, looked up): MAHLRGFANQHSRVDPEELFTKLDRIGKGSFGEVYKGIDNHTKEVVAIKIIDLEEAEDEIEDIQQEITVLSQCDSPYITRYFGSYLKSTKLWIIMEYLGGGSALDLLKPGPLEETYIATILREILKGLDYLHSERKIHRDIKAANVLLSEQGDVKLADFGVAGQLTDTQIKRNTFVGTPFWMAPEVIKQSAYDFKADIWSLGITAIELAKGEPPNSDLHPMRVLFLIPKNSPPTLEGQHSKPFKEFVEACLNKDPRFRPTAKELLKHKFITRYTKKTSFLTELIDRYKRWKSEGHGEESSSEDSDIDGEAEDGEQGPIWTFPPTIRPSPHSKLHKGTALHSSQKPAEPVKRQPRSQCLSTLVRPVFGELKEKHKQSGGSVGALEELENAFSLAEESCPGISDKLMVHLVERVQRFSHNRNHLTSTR
# Sequence of UniProt Q9UM73 (whole entry, looked up): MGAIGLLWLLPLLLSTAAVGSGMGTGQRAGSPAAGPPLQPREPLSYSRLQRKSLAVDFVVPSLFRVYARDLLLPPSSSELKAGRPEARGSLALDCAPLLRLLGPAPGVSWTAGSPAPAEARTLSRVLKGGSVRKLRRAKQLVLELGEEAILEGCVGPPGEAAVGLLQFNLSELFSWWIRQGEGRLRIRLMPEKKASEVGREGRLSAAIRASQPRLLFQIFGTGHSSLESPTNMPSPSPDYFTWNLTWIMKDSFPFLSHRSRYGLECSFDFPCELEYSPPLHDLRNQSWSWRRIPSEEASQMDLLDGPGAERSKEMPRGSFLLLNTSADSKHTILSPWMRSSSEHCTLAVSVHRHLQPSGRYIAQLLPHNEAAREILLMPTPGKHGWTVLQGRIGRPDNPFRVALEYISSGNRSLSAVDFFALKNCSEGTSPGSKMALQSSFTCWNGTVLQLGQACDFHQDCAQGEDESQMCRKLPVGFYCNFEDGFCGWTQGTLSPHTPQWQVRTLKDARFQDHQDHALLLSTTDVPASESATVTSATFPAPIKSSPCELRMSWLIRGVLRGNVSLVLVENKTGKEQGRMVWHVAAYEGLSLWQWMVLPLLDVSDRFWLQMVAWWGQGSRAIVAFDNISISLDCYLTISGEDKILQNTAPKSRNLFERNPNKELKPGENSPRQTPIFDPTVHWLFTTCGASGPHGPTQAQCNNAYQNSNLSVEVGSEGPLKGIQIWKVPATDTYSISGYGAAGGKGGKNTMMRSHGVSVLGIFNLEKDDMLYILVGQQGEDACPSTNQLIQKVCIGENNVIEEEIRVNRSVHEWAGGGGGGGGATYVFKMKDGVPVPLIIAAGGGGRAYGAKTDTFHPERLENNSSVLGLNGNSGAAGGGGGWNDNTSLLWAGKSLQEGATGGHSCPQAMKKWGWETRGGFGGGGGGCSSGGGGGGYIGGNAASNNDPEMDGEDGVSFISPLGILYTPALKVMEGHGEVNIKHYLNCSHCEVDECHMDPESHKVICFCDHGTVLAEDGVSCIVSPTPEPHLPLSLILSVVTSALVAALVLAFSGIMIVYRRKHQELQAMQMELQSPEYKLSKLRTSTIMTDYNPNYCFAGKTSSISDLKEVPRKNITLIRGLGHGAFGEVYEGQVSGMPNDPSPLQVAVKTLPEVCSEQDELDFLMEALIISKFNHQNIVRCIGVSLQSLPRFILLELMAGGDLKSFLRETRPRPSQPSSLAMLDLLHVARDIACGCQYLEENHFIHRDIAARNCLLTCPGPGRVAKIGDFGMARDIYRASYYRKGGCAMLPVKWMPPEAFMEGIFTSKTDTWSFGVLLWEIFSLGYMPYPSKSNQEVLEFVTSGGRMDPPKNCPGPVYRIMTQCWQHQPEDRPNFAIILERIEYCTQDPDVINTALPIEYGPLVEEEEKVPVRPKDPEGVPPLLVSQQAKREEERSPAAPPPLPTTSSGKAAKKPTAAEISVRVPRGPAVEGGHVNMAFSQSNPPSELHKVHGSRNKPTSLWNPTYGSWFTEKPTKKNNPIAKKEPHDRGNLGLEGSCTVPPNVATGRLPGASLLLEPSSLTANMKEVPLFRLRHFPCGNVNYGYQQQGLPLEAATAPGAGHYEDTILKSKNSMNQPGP
SMILES,tested on,assay,test system,setting,scale,endpoint,value
CCOc1ccc(CNCCc2ccc3c(c2)OCO3)cc1,Trypanosoma cruzi,"reporter mRNA translation, inhibitor, refers to: Renilla luciferase mRNA",cell-free extract,"concentration not given, test 2",reference: positive over negative control,translation activity,99%
CC(C)[C@H]1NC(=O)C[C@H]2/C=C/CCSSC[C@@H](NC1=O)C(=O)N[C@H](Cc1cccc3ccccc13)C(=O)NCC(=O)O2,"NPM/ALK (Nucleophosmin/ALK tyrosine kinase receptor) (NPM1/ALK, Homo sapiens, UniProt P06748+Q9UM73)","enzyme activity, inhibitor",,10 µM,,inhibition,1.2%
Cc1cc(C(=O)Nc2nc3cccc(C)c3n2[C@H]2CCCCN(C(=O)/C=C/CN(C)C)C2)ccn1,Trypanosoma brucei,propidium iodide flow cytometry,bloodstream form,"concentration not given, 8 h",,multinucleated cells,9.99%
CC(C)CC(O)(CC(C)C)c1cn(C(=O)N2CCCC2)nn1,"Lysosomal protective protein (Ctsa, Mus musculus, UniProt P16675)","enzyme activity, inhibitor, competitive ABPP-SILAC, refers to: Ctsa",mouse T-cells,"concentration not given, 4 h, treated in situ",reference: DMSO,activity ratio,1.32
COc1ccccc1-c1n[nH]c2nc(N[C@H]3CC[C@H](NS(=O)(=O)CC(C)C)CC3)ncc12,,"bead binding, competition bead pull-down, refers to: LINJ.22.0180",Leishmania donovani extract,10 µM,reference: vehicle,relative abundance,1.73
CC(C)(C)C(=O)OCOP(=O)(OCOC(=O)C(C)(C)C)C1CCCN(O)C1=O (stereo not shown),786-0,cell growth,,,,TGI,18.1 µM
Cc1sc2c(c1C)C(c1ccc(Cl)cc1)=NC(CC(=O)OC(C)(C)C)c1nnc(C)n1-2 (stereo not shown),"EDNRA (Homo sapiens, UniProt P25101)","ligand displacement, radioligand",,1 µM,,remaining binding,83.7%
CC[C@H](C)[C@H](NC(=O)[C@H](CO)NC(=O)[C@H](Cc1ccc(O)cc1)NC(=O)[C@H](Cc1ccc(O)cc1)NC(=O)[C@H](CC(N)=O)NC(=O)CNC(=O)[C@H](CO)NC(=O)[C@H](Cc1ccc(O)cc1)NC(=O)[C@H](CO)NC(=O)[C@H](CO)NC(=O)[C@H](CC(N)=O)NC(=O)COCCOCCNC(=O)CN1CCN(CC(=O)O)CCN(CC(=O)O)CCN(CC(=O)O)CC1)C(=O)N[C@@H](CC(C)C)C(N)=O [copper-64 labelled],,dynamic PET,"KPC mouse Ptf1a-CreER tdTomato, metastases","intravenous, dose not given, 1.4 min, 84 d after tamoxifen",,tissue uptake,13.8 %ID/mL
O=C1NC(=O)c2c1c1cc(F)c[n+]3c1c1c2c2cc(O)ccc2[n]1[Ru-4]312([N]=C=S)[S+]3CC[S+]1CC[S+]2CC3 (stereo not shown),"EGFR (Homo sapiens, UniProt P00533, T790M)",enzyme activity,,"100 nM, human enzyme, with: 10 µM ATP",reference: untreated,remaining activity,83%
C#CCN(Cc1ccc2nc(C)[nH]c(=O)c2c1)C(=O)NC(CSCC(N)=O)c1cccc([N+](=O)[O-])c1 (stereo not shown),Mycobacterium tuberculosis,"bacterial growth, inhibitor",H37Rv pptT conditional knockdown,with: anhydrotetracycline added,,MIC50,> 100 µM
COc1ccccc1-c1n[nH]c2nc(NC3CCN(C(=O)Cc4ccc(F)cc4F)CC3)ncc12,,"bead binding, competition bead pull-down, refers to: LINJ.06.0030",Leishmania donovani axenic amastigote extract,10 µM,reference: vehicle,relative abundance,0.65
CS(C)(=O)=Nc1ccc(-c2ccc(-c3nc4cc(O[C@@H]5CO[C@H]6[C@@H]5OC[C@H]6O)[nH]c4cc3F)cc2)cc1,"STK25 (Homo sapiens, UniProt O00506)","enzyme activity, inhibitor",,10 µM,,inhibition,5%
CN(C)[C@H]1C[C@@]23CC[C@@]4(O2)C(=CC[C@]2(C)[C@@H](c5ccc6ccncc6c5)CC[C@H]24)C=C3[C@@H](O)[C@@H]1O,"CHEK2 (Homo sapiens, UniProt O96017)","ATP probe labelling, inhibitor, KiNativ profiling",,1 µM,,inhibition,-2.5%
O=C1NC2(CC2)COc2ncc(F)cc2[C@H]2COCCN2c2ccn3ncc1c3n2,,,"Sprague-Dawley rat, female, plasma","oral, 2.5 mg/kg/day, end of treatment, 4-week repeated-dose toxicity",,prothrombin time,8.2 ± 0.2 s
Cc1ccsc1C(=O)C1CCCN(Cc2cnc(N3CCCC3)s2)C1 (stereo not shown),Trypanosoma cruzi,"reporter mRNA translation, inhibitor, refers to: Renilla luciferase mRNA",cell-free extract,"concentration not given, test 1",reference: positive over negative control,translation activity,106% and 126%
Nc1ccc(/C=C/C(=O)N2CCc3c(oc4c(-c5ccc(F)cc5)cc(-c5ccc(C(=O)N6CCC(F)(F)CC6)cn5)cc34)C2)cn1,"BMPR2 (Homo sapiens, UniProt Q13873)","binding, competition with immobilised ligand",,1 µM,,remaining binding,80%
Cc1ccc2c(C(C[N+](=O)[O-])c3cccs3)c(-c3ccccc3)[nH]c2c1 (stereo not shown),"CNR1 (Homo sapiens, UniProt P21554, S199A)","Gαi1-γ2 dissociation, BRET",,,,Emax,74.4 ± 4.01%
CCCC1COC(Cn2cncn2)(c2ccc(Cl)cc2Cl)O1 (stereo not shown),Trypanosoma cruzi,"reporter mRNA translation, inhibitor, refers to: Renilla luciferase mRNA",cell-free extract,"concentration not given, test 2",reference: positive over negative control,translation activity,127% and 104%
CCN(Cc1ccc2nc(C)[nH]c(=O)c2c1)c1ccc(C(=O)NC(C(=O)O)C(C)C)cc1 (stereo not shown),Mycobacterium tuberculosis,"bacterial growth, inhibitor",H37Rv pptT conditional knockdown,with: anhydrotetracycline added,,MIC50,> 100 µM
